# Measured values collected from several papers.
# Numbered parts are unrelated; each lists some results of a single study. Substitutions count along the parent as printed.

# Block 1
# Target: Histone acetyltransferase KAT6A, winged helix 1, GST fusion (KAT6A, Homo sapiens, UniProt Q92794, residues 1-85)
# Method: protein binding microarray
# Molecule type: double-stranded DNA, one strand shown
# Medium: in vitro
# Concentration: not given
# Notes: 8-mer, flanks averaged, mean of 2 arrays, mostly near background
# Relative to: not given
# Reading: higher = stronger binding
# Residues (chain): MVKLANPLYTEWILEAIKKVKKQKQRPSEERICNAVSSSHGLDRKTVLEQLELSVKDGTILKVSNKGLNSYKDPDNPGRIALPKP
Strand,E-score
GTGCGCAA,0.288
CAGCTAAG,-0.146
AATCCAGA,-0.308
GCATTCAC,0.0947
AGGTACGA,-0.134
TAAGAGCA,-0.297
GAACCCGC,0.392
ACCCGAGG,0.0178
AATGGAGC,-0.172
CGCCTCTC,-0.0317
ATCCAGAG,-0.217
AGGAAGCG,0.0598
TGCGGCCA,0.136
GGCCCCCC,0.146

# Block 2
# Target: CCNB2, cyclin fold, Cln2 fusion (human)
# Method: yeast growth competition, sequencing
# Medium: yeast
# Notes: weak parent motif
# Relative to: not given
# Reading: higher = stronger binding
# Parent: SCAPER docking peptide (human); SNARRSLNFGGST
Substitution,normalised enrichment score
S12W,0.292
T13A,-0.0123
L7F,-0.0812
S6R,0.632
R4Q,-0.55
R4S,-0.238
N8I,0.408
F9A,0.176
S6L,0.523

# Block 3
# Target: RING finger protein unkempt homolog, zinc fingers 1-6, GST-SBP tag (UNK, Homo sapiens, UniProt Q9C0B0, residues 30-357)
# Method: RNA Bind-n-Seq
# Molecule type: RNA
# Medium: in vitro
# Concentration: not given
# Notes: RNA with constant flanks, ends assumed
# Relative to: input RNA pool
# Reading: higher = stronger binding
# Shared flanks, not repeated: GGGAGUUCUACAGUCCGACGAUC … CAACAGAGGAUUGAGCAUCA
# Target sequence (chain): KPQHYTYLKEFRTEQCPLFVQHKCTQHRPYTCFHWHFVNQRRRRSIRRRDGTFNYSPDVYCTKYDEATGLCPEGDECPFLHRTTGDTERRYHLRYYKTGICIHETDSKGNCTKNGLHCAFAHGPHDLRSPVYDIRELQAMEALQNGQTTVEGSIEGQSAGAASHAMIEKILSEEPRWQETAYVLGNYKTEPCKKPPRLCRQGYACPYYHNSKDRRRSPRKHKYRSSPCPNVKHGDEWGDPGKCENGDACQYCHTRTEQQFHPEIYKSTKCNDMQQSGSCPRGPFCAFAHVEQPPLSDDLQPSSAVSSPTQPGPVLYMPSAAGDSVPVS
Strand,bound/input enrichment [ratio]
UUUUUUUUAAAAUAGAAAAUAAAUCUGACAACAAAUACUUUAAAAAUUGUAAAUAGUUUUCCGUUUUACGACUUAAAGUGUUUUGAUGGGGAAAGUUGAUUGAAACUAUAACUGGUUUUA,1.37
UUUCUGGUAAAUUCAUGUCAGUAAUUUGUUGAAGAGUUAACAAGAAAAGGUCUUUCCCGAUUGUGUCUAAGAUGAAAUAAAAUGUAACUUUUGCUGCAGUGGUAUGUUUCUUUUGGAGUA,0.135
CCUCCACCAAAUGCAGAUCCUAAUAUGAAGUUAUUUACAAUUCGUGGCACUCCACAACAGACCGACUAUGCUCGGCAACUCAUAGAAGAAAAGAUUGGUGGCCCAGUAAAUCCUUUAGGG,0.923
AACAGUGAUAUAUGCAAGAAACCCUGUAGCGUAGCGCCUCAUGAUAGUCAGCUAAUUUCCCGUACUAUCCUAAUUAAUGAAAUGAAUGGAGUUGGAGAAAAAUUAUCAGCCAAGGAGAAC,0.774
AUUGAAAUAUUCACUGACCUCAGCAGCCGAUUCAGCAAAAGUCAGCUGGAUAUUAUAAUUCACCGCUUGAAGAAAUGUGACAUCUCCCUGCAAUUCUUCUUGCCUUUCUCACUUGGCAAG,0.086
GAUAUUUGCAAUUAGUUGUCUUAACUAAUGGUUUUUUUCACUUGCAGGAUUAUUUCCUAUUCCGAGAUGGUGACAUUCUUGGAAAGUACGUAGACUGAAAUAAGUCACUAUUGAAAUGGC,0.188
AUUAAUGCUCUAAUGCAUGCUUUGAUUGAAUUACGGACAAAGGACCCCAACAUAAAAAGUUCCGUUGUUUCUCAGUUUACCACAUUCUUGUCUUUAAUAGAAACACCUCUUAAAGCCUCA,0.171
UUUGCUUUUCAUCUUUUAUAGAUGUAAUCUGAUUUUCAAAAAUCAUUAACACUUUUUAAUCCGUAUCGACUAAGACUUUUUCCCCCUGGAAUCGAGGCUGUGUGUCCGUCAUCCCAGCCC,0.576
AAAAUACUACAAGCAGGCUUCAAGAGGAUGGGCGUUGACAAAAUAAUUCCUGUGGAUAAAUCCGUAAAAGGAAAAUUUCAGGACAAUUUUGAAUUUGUUCAAUGGUUCAAGAAGUUUUUU,0.0968

# Further values, each from its own experiment
Molecule,target,test,system,conditions,how to read,endpoint,value
"PhoQ, residues 284 288 289 292 302 303 TAVSDG","PhoP, residues 12 14 15 18 19 LFHKL (Escherichia coli, UniProt P23836)","Sort-seq, item: YFP reporter",E. coli,"PhoQ-PhoP variant library, with: 10 µM Mg2+","relative to: high Mg2+ state, higher = stronger signaling",fold induction,2.78

# For quick reference, copied from above (block 3):
Strand,bound/input enrichment [ratio]
UUUCUGGUAAAUUCAUGUCAGUAAUUUGUUGAAGAGUUAACAAGAAAAGGUCUUUCCCGAUUGUGUCUAAGAUGAAAUAAAAUGUAACUUUUGCUGCAGUGGUAUGUUUCUUUUGGAGUA,0.135
CCUCCACCAAAUGCAGAUCCUAAUAUGAAGUUAUUUACAAUUCGUGGCACUCCACAACAGACCGACUAUGCUCGGCAACUCAUAGAAGAAAAGAUUGGUGGCCCAGUAAAUCCUUUAGGG,0.923
AACAGUGAUAUAUGCAAGAAACCCUGUAGCGUAGCGCCUCAUGAUAGUCAGCUAAUUUCCCGUACUAUCCUAAUUAAUGAAAUGAAUGGAGUUGGAGAAAAAUUAUCAGCCAAGGAGAAC,0.774
